# Results gathered from unrelated publications.
# A part holds a random share of what one study measured. Changes are numbered by the printed parent chain.

# Set 1
# Target: Histone acetyltransferase KAT6A, winged helix 1, GST fusion (KAT6A, Homo sapiens, UniProt Q92794, residues 1-85)
# Method: protein binding microarray
# Form: double-stranded DNA, one strand shown
# Medium: in vitro
# Concentration: not given
# Setting: 8-mer, flanks averaged, mean of 2 arrays, mostly near background
# Relative to: not given
# Direction: higher = stronger binding
# Target sequence (chain): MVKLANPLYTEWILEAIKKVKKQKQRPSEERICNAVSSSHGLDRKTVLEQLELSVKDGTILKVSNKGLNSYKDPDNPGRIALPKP
Oligonucleotide,E-score
CGTCGTCC,0.111
AGATTCTC,-0.042
GGTAGTCA,0.0165
ATAGGCTC,-0.127
GGACTGAA,-0.13
AGAGTCGC,-0.0424
ATTGACAA,-0.0433
ATTTAAAG,-0.0551
AATCCCGA,0.14
CTGGACTA,-0.236
CAGTGACA,-0.201
CTAAGACA,0.00789
ACGGCCAA,0.205
AAACTGTA,-0.0562
AACATACG,0.176
CACAGGAC,-0.0965
ACGGGTCC,0.351
ACGTTCCG,0.205
GATAATCA,0.0445
GATGGTTA,-0.09
GAACGGTC,0.128

# Set 2
# Target: CREB3L3, bZIP domain (human)
# Method: DHFR protein complementation
# Medium: yeast
# Setting: single substitutions, most at no-binding floor
# Relative to: wild-type JUN-FOS pair
# Direction: higher = stronger binding
# Starting sequence: JUN, bZIP domain (human); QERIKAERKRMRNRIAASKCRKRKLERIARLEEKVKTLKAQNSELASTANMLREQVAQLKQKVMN; partner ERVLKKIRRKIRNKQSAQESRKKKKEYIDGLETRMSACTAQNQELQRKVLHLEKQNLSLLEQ
Change,binding fitness [natural log]
A40V,-1.39
E54K,-1.54
R53I,-1.49
M51R,-1.42
S43T,-1.19
L38K,-1.51
K34T,-1.51
Q41I,-1.44
R30T,-1.4
Q55T,-1.46
S43M,-1.45
N42A,-1.38
L31E,-1.45
N42W,-1.4
T37R,-1.36
V56K,-1.39
K39E,-1.48
I28Y,-1.07
S43K,-1.13
N42K,-1.41
K34V,-1.48
Q55I,-1.43
L59G,-1.44
T37S,-1.48
L31K,-1.46

# Set 3
# Target: CCNF, cyclin fold, Cln2 fusion (human)
# Method: yeast growth competition, sequencing
# Medium: yeast
# Setting: strong parent motif
# Relative to: not given
# Direction: higher = stronger binding
# Starting sequence: E2F1 docking peptide (human); PPVKRRLDFETDH
Change,normalised enrichment score
PPGKRRLDFETDH [V3G],6.83
PPVKRRLFFETDH [D8F],8.61
PPVKRRLTFETDH [D8T],7.43
PPVKRRLVFETDH [D8V],6.1
PPVKRRADFETDH [L7A],0.491
PWVKRRLDFETDH [P2W],8.39
PPVKRRLDPETDH [F9P],1.08
PPVSRRLDFETDH [K4S],7.11
PPVKRRLDIETDH [F9I],4.73
PPVKRRLDFETKH [D12K],7.77
PPVKRVLDFETDH [R6V],6.91
PPVKRRLDFETGH [D12G],8.01
PPVKRRLDFQTDH [E10Q],7.97
PPVKRRLDFETYH [D12Y],7.99
PPVKRRSDFETDH [L7S],-0.102
PPVKSRLDFETDH [R5S],-0.096
PPVKRRLDFPTDH [E10P],7.61
PPVGRRLDFETDH [K4G],6.86
PPVKRRLNFETDH [D8N],7.76
PPVKERLDFETDH [R5E],-0.243

# Set 4
# Target: ABI1, truncated, D143A, DHFR fusion (Arabidopsis thaliana)
# Method: DHFR PCA, deep sequencing
# Medium: yeast
# Setting: methotrexate growth selection, single substitutions
# With: (+)-ABA 58 µM
# Relative to: wild-type fitted maximum
# Direction: higher = stronger binding
# Starting sequence: PYL1, truncated, DHFR fusion (Arabidopsis thaliana); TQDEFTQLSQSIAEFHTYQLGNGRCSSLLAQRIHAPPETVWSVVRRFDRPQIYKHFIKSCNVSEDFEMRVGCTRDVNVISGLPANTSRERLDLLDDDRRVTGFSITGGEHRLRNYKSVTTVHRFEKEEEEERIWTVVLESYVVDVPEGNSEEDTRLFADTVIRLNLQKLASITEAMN
Change,relative binding score [%]
Q31K,88.4
V76N,32.2
P37R,11.7
E139T,90.1
T135Q,-2.81
N85Y,78.4
L28S,22.9
V142L,65.2
R69S,82.2
T39Y,79.5
L112K,13.5
L138K,-20.3
D159S,64
C72K,56.6
D153T,20

# Set 5
# Target: Sal-like protein 4, full length isoform A (SALL4, Homo sapiens, UniProt Q9UJQ4, residues 1-1053)
# Chain of UniProt Q9UJQ4 (whole entry, looked up): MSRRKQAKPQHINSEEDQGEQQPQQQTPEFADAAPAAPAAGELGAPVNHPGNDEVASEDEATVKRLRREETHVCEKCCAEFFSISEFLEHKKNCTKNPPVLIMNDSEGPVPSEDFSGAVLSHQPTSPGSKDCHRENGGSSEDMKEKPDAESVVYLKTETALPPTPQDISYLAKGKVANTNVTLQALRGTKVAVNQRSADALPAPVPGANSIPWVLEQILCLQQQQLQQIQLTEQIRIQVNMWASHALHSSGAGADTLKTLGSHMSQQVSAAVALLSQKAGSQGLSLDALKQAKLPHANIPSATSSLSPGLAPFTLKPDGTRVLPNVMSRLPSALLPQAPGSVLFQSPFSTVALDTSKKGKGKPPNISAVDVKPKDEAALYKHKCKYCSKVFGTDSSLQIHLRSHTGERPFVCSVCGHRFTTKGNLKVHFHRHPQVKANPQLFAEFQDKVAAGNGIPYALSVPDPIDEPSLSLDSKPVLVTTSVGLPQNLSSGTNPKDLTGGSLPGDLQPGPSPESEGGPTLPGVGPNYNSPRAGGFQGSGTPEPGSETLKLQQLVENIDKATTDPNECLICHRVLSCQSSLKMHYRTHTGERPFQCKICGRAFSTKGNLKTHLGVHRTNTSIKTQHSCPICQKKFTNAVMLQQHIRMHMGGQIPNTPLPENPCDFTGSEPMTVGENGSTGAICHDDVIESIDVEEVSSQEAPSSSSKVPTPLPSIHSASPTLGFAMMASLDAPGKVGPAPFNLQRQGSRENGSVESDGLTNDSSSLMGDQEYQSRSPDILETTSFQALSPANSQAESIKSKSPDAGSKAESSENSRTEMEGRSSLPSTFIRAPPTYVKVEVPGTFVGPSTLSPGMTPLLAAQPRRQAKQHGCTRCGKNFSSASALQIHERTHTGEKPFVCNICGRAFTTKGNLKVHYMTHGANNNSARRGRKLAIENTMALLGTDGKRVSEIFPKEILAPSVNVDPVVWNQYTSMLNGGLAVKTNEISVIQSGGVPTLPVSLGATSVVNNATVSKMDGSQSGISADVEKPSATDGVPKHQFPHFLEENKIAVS
# Method: universal PBM
# Form: double-stranded DNA, one strand shown
# Medium: in vitro
# Concentration: 600 nM
# Setting: 8-mer, flanks averaged, mean of replicates
# Direction: higher = stronger binding
Oligonucleotide,E-score
AACTAGCT,0.016
AGGGTATG,0.0454
GCGGGAGC,-0.313
CGTTCGCC,-0.121
GCAATTGC,0.261
CGAGTATA,0.221
AACCAGCA,0.00819
AACGAACA,0.242
TGTCAGAA,0.109
GGGGGTAC,-0.259
CACTCAAA,0.139
GCACTACA,-0.0241
ATGTACTG,0.133
CTGTTTGC,0.0201
AATCCAAA,0.26
ACGTCAGA,-0.0374
GCCCTGGA,-0.338
GATCAGGC,-0.179
GACGATAA,0.183
AAGAGTTG,0.0312
CAGTCGCA,-0.145
ATTAGGCC,-0.00908
CGGTACTA,-0.14
CCGCTTTA,0.0502
ACGCGCCT,-0.127

# Set 6
# Target: RING finger protein unkempt homolog, zinc fingers 1-6, GST-SBP tag (UNK, Homo sapiens, UniProt Q9C0B0, residues 30-357)
# Method: RNA Bind-n-Seq
# Form: RNA
# Medium: in vitro
# Concentration: not given
# Setting: RNA with constant flanks, human and mouse sites, ends assumed
# Relative to: input RNA pool
# Direction: higher = stronger binding
# Residues (chain): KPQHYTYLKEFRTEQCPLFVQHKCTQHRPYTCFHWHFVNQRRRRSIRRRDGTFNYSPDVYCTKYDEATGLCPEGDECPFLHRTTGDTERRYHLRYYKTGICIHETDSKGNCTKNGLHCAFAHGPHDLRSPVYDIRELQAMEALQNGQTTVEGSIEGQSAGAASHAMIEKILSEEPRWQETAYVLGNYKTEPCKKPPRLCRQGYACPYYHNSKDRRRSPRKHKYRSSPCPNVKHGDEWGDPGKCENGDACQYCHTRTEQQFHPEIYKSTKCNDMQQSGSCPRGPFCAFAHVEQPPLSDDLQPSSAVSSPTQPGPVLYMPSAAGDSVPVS
Oligonucleotide,bound/input enrichment
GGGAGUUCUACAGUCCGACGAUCGCUGCCCAGAAGGCAAAGCCAGUAGCUACUACUCCUAUUCCUGGUACUCCAUGGUGUGUUGUUUGGACUGGUGAUGAGAGGGUCUUCUUUUACAAUCCCACCACCCGCCUUUCUAUGUGGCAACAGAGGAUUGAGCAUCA,0.11 ratio
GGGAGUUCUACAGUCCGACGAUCGAAGAAGCCCAUAAACUCCCAGUAAAACAUUUUACUAAUCCAUAUUGUAACAUCUACCUGAAUAGUGUCCAAGUAGCAAAAACUCAUGCAAGGGAAGGGCAAAACCCAGUAUGGUCAGAACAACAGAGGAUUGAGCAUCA,0.479 ratio
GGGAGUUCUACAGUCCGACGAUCUUACGUGUUGGUGCUGAUAAUCAUGUGCUACCCUUGGACUGUGUUACUCUUCAGACAUUUUUAGCUAAGUGUUUGGGACCUUUUGAUGAAUGGGAAAGCAGACUUAGGGUUGCAAAAGAACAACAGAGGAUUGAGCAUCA,0.359 ratio
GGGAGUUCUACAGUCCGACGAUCUCAACUAAUCGUGGUGUAAUUGUUGAAUCAGCGUAUUCUGAUAUAGUAAAAAUGAUCAGUGCUAACAUCUUCCGGACACUUCCUCCAAGUGAUAAUCCAGAUUUUGACCCGGAAGAGGAUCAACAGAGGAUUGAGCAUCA,0.28 ratio
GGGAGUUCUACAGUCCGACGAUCGAGUACAAUCUCUUUUCUAGGAAGAUAGAAGAGAUUUUGAAGCAAAAGAAUGUUUCAUAUGUCAGUACAGUUUCCACACCUAUCUUUUCAACACAAGAGAAGAUGAAACGGCUUUCCGAGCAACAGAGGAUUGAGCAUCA,0.116 ratio
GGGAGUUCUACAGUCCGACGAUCUUUGAAGAGCAGUGUGUUGAAAUGUAUUUCAAUGAAAAAGAUGACAAAUUUCAUUCUGGGAGUGAAGAGAGAAUUCGUGUCACUUUUGAAAGAGUGGAACAGAUGUGCAUUCAGAUUAAACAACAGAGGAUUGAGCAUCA,0.192 ratio
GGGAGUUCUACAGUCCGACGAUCCAAGUACCUUAUAAAUAUGACUUAUAUGAAAAAACUUUGAAAUAUAAUUCAGACUUGCUUAAUAGUAAUAGAAGCUAUGCAGGAAAGCAGACUGAUGAGUGUAAUGAAUUUGGAAAAGCACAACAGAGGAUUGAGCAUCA,0.578 ratio
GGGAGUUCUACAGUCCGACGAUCGAGCAGAGCUCGCCCCAGUCGGCCAAGCAGAAGUGUGUGUGUCUGGCUGUGGAAGAUUGGGAUUUGCUCAAUUCCUACUGACUGACACAUACAGUCGACCUCCCCCACCUCAGUACGAGGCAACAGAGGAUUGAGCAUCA,0.0517 ratio
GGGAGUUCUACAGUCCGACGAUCAGUCUUCAGGAUACUGUAGCUUCCUCUGUAGAGAACUUCGUUUUAAUAGACACUGUACAAUAGUGGUGUUUUACUUCACUGAAUCACACCUUUGUUCUGAAAGUGUGAUACAGAGUAUAACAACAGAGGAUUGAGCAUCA,2.15 ratio
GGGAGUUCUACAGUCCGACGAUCAUACCUCCAACAGGGUCACUGUCAAGAACCUCGAUUAUAGCAGGAAGCUGAAAAACGUGCUAGUGACCAUUUACUGGCUGGGGAAAGCUGCAAACAGCUGUGCAUCCUACGGUGGAACCACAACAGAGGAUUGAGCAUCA,0.159 ratio
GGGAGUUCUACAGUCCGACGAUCUAUGAAUUUGACAAGUUUUGGUUUGAAGAAGAACCAGAAAGCAUUAUGUAUUUCAAUUUGUAUAGAGAGAAGUUUCAUGAAAAGAUUAAAGGACUUUUACUGGAUUGUAAUGUAGCACUUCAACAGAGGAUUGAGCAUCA,0.739 ratio

# Single results of other studies
Molecule,target,test,system,conditions,scale,measurement,value
"PhoQ, residues 284 288 289 292 302 303 SCKMEA","PhoP, residues 12 14 15 18 19 NQFFI (Escherichia coli, UniProt P23836)","Sort-seq, measured: YFP reporter",E. coli,"PhoQ-PhoP variant library, with: 10 µM Mg2+","relative to: high Mg2+ state, higher = stronger signaling",fold induction,23.9

# For quick reference, copied from above (set 3):
Change,normalised enrichment score
PPVKRRADFETDH [L7A],0.491
PWVKRRLDFETDH [P2W],8.39
PPVKRRLDPETDH [F9P],1.08
PPVSRRLDFETDH [K4S],7.11
PPVKRRLDIETDH [F9I],4.73
PPVKRRLDFETKH [D12K],7.77
PPVKRVLDFETDH [R6V],6.91
